Published values gathered from unrelated publications.
Protocols differ between the studies behind these lines.
Organism: Staphylococcus aureus

| SMILES | assay | system | setting | MIC |
| --- | --- | --- | --- | --- |
| CCCCN1C(=O)/C(=N\NC(=N)N)c2cc(C)ccc21 | broth microdilution | BAA41 MRSA | 18 h, 37 °C | 96 µg/mL |
| O=C1c2ccccc2NC(c2ccc(O)c(O)c2)N1/N=C/c1ccc(O)c(O)c1 (stereo not shown) | microbial growth, broth dilution |  | 24 h, drug-resistant strain, clinical isolate | 64 µg/mL |
| N=C(N)NCCC[C@@H]1NC(=O)[C@H](CCCNC(=N)N)NC(=O)[C@H](CCCNC(=N)N)NC(=O)[C@H](CCCNC(=N)N)NC(=O)[C@H](Cc2c[nH]c3ccccc23)NC(=O)[C@H](CCCNC(=N)N)NC(=O)[C@H](CCCNC(=N)N)NC(=O)[C@@H](N)CCCCn2cc(nn2)C[C@@H](C(N)=O)NC1=O |  | ATCC 25923 | 18 to 24 h, no serum | 7.8 µg/mL |
| CCCCCCCCCCCCCCCc1cc(O)cc(O)c1 | microbial growth, broth dilution | USA300 | drug-resistant strain | > 64 µg/mL |
| CCO[C@H]1[C@H](O)[C@@H](N)[C@@H](O[C@H]2[C@H](O[C@@H]3O[C@H](CO)[C@@H](O[C@H]4O[C@@H](CN)[C@@H](O)[C@H](O)[C@H]4N)[C@H]3O)[C@@H](O)[C@H](N)C[C@@H]2N)O[C@@H]1CO | broth microdilution | MRSA isolate AG 044 |  | 8 to 16 µg/mL |
| CN[C@@H]1[C@H](O)[C@H](NC)[C@H]2O[C@]3(O)[C@H](O[C@@H]2[C@H]1O)O[C@H](C)C[C@@]3(O)CNCCc1ccc(F)cc1 | microbial growth | MRSA | drug-resistant strain | 25 µg/mL |
| NC(=O)c1c(F)ccc(OCc2nc3cc(Cl)cnc3s2)c1F | microbial growth | ATCC29247 | drug-resistant strain, clinical isolate | 1 µg/mL |
| CN[C@@H]1[C@H](O)[C@H](NC)[C@H]2O[C@]3(O)[C@H](O[C@@H]2[C@H]1O)O[C@H](C)C[C@@]3(O)CNCc1ccccc1 |  | MSSA ATCC 29213 |  | 50 µg/mL |
| CC[C@H](C)[C@H](NC(=O)[C@H](CC(=O)O)NC(=O)[C@H](Cc1ccccc1)NC(=O)[C@H](CC(C)C)NC(=O)[C@@H](N)CCCCN)C(=O)N[C@H](C(=O)N[C@@H](CCCCN)C(=O)N[C@@H](CCCCN)C(=O)N[C@H](C(=O)N[C@H](C(=O)NCC(=O)N[C@@H](C)C(=O)N[C@@H](CC(C)C)C(=O)NCC(N)=O)C(C)C)C(C)C)C(C)C |  | SH1000 GFP-expressing, nutrient broth | 20 h, 37 °C | > 100 µM |
| CC(C)[C@H](NC(=O)[C@H](CCCCN)NC(=O)[C@H](CCCNC(=N)N)NC(=O)CNC(=O)[C@H](C)NC(=O)[C@H](CC(N)=O)NC(=O)[C@H](CCCNC(=N)N)NC(=O)[C@@H](NC(=O)[C@H](CCCCN)NC(=O)[C@H](CC(=O)O)NC(=O)[C@@H](NC(=O)[C@@H](NC(=O)[C@H](CCCNC(=N)N)NC(=O)[C@H](CCCNC(=N)N)NC(=O)[C@H](Cc1c[nH]c2ccccc12)NC(=O)[C@H](Cc1c[nH]c2ccccc12)NC(=O)CN)[C@@H](C)O)C(C)C)C(C)C)C(=O)O | bacterial growth | MRSA, ESBL-positive | 18 h | > 256 µg/mL |
| CC(C)=CCc1cc([C@@H]2CC(=O)c3c(O)cc(O)c(CC=C(C)C)c3O2)cc(CC=C(C)C)c1O |  |  |  | inactive |
| CCCCc1ccc(-c2nc(C)c(C(C)=NNC(=N)N)s2)cc1 |  | VRS1 VRSA |  | 0.7 µg/mL |
| c1ccc(CN2CCOCCOCCN(CCCCCCCCCCCCCCN3CCOCCOCCN(CCCCCCCCCCCCCCN4CCOCCOCCN(Cc5ccccc5)CCOCCOCC4)CCOCCOCC3)CCOCCOCC2)cc1 | microbial growth | MRSA USA300 | drug-resistant strain | 1.5 µM |
| CN1C(=O)[C@@H]2NC(=O)[C@@H]3NC(=O)[C@@H](c4ccc(O)cc4)NC(=O)[C@H](NC(=O)C(NCCCCCCB(O)O)c4ccc(O)cc4)Cc4c[nH]c5cc(ccc45)-c4cc3cc(c4O)Oc3ccc(cc3)C[C@H]1C(=O)N[C@@H](C(=O)OCCCCCCB(O)O)c1ccc(O)c(c1)Oc1ccc2cc1 (stereo partly shown) |  | ATCC 33591 MRSA, Mueller-Hinton broth |  | > 128 µg/mL |
| CC(C)CCCCCCCCC/C=C/C(=O)N[C@@H](CC(=O)O)C(=O)N[C@H]1CNC(=O)[C@@H]2CCCN2C(=O)[C@H](C)NC(=O)[C@@H]([C@@H](C)O)NC(=O)CNC(=O)[C@H](CC(=O)O)NC(=O)CNC(=O)[C@H](CC(=O)O)NC(=O)CNC(=O)[C@H]2CCCCN2C1=O |  | MRSA USA300 | with: Ca2+ 1 mM | 64 µg/mL |
| CC(=O)N[C@@H](CCCNC(=N)N)C(=O)N[C@@H](Cc1c[nH]c2ccccc12)C(=O)N[C@@H](CCCNC(=N)N)C(=O)N[C@@H](Cc1c[nH]c2ccccc12)C(=O)N[C@@H](Cc1c[nH]c2ccccc12)C(=O)N[C@@H](CCCCN)C(=O)N[C@@H](Cc1ccccc1)C(=O)N[C@H](C(N)=O)C(C)C |  | MRSA ATCC 33591, MEM medium | overnight, 37 °C | 1.4 µM |
| CCN1CCNC1=[S+][Ag-3]([O][N+](=O)[O-])([P+](c1ccccc1)(c1ccccc1)c1ccccc1)[P+](c1ccccc1)(c1ccccc1)c1ccccc1 | agar dilution | methicillin-resistant | 24 h, 37 °C | 10 µg/mL |
| C/C(=N\NC(=N)N)c1nnn(-c2ccc(S(=O)(=O)NC3CCCC3)cc2)c1C | microbial growth, broth dilution | MRSA USA300 | drug-resistant strain | 8 µg/mL |
| CN1C(=O)[C@@H]2NC(=O)[C@@H]3NC(=O)[C@@H](c4ccc(O)cc4)NC(=O)[C@H](NC(=O)C(N)c4ccc(O)cc4)Cc4c[nH]c5cc(ccc45)-c4cc3cc(c4O)Oc3ccc(cc3)C[C@H]1C(=O)N[C@@H](C(=O)NCCC[N+]1(C)CCCC1)c1ccc(O)c(c1)Oc1ccc2cc1 (stereo partly shown) |  | ATCC 33591 MRSA, Mueller-Hinton broth |  | > 128 µg/mL |
| NCCCC[C@@H]1NC(=O)[C@@H](CCCCN)NC(=O)[C@H](CCCCN)NC(=O)[C@@H](CCCCN)NC(=O)[C@H](Cc2c[nH]c3ccccc23)NC(=O)[C@@H](Cc2c[nH]c3ccccc23)NC(=O)[C@H](Cc2c[nH]c3ccccc23)NC(=O)[C@@H](Cc2c[nH]c3ccccc23)NC(=O)[C@@H](N)CSCc2ccc(cc2)CSC[C@@H](C(N)=O)NC(=O)[C@@H](CCCCN)NC1=O |  | Newman MSSA |  | 64 µg/mL |
| COc1ccc2ccc3c(c2c1)C=[N+]1C2CCCCC2[N+]2=Cc4cc(C(C)(C)C)ccc4[O][Au-]21[O]3.F[P-](F)(F)(F)(F)F (stereo not shown) | bacterial growth, broth microdilution | vancomycin-intermediate | 24 h | 10 µM |
| CCCCCCCCCCCCCC(=O)N[C@H](CCN)C(=O)N[C@H](C(=O)N[C@@H](CCN)C(=O)N[C@@H](CC(C)C)C(=O)N[C@@H](CCN)C(=O)N[C@H](Cc1ccccc1)C(=O)N[C@@H](CC(C)C)C(=O)N[C@@H](CCN)C(=O)N[C@H](Cc1ccc(O)cc1)C(=O)N[C@H](C(=O)N[C@@H](CC(=O)O)C(=O)O)C(C)C)[C@@H](C)O | broth microdilution | BNCC 186335 |  | 2 µg/mL |
| C/C(=N/NC(=N)N)c1nnn(-c2ccc(C#Cc3ccsc3)cc2)c1C | broth microdilution | MRSA USA300 NRS384 |  | 16 µg/mL |
| CC(C)C[C@@H]1NC(=O)[C@H](C)NC(=O)[C@H](NC(=O)[C@H](CO)NC(=O)[C@@H](CCCCN)NC(=O)[C@@H](CC(C)C)NC(=O)[C@@H](N)Cc2ccccc2)[C@H](C(N)=O)OC(=O)[C@H](C)NC1=O |  | MRSA ATCC 700698 | TFA salt | > 32 µg/mL |
| CC(=O)N[C@@H](Cc1c[nH]c2ccccc12)C(=O)NCCCCCCCCCCCC(=O)NCCCC[C@@H]1NC(=O)[C@H](CCCNC(=N)N)NC(=O)[C@H](CCCNC(=N)N)NC(=O)[C@H](CCCNC(=N)N)NC(=O)[C@H](CCCNC(=N)N)NC(=O)[C@H](CCCNC(=N)N)NC1=O | broth microdilution | MRSA ATCC 43300 | 37 °C | 83.4 µg/mL |
| CC[C@H](C)[C@H](NC(=O)[C@H](CCCCN)NC(=O)[C@H](CC(N)=O)NC(=O)[C@H](Cc1c[nH]c2ccccc12)NC(=O)[C@H](Cc1ccccc1)NC(=O)[C@H](CCCCN)NC(=O)[C@H](CCCNC(=N)N)NC(=O)[C@H](CC(C)C)NC(=O)[C@H](Cc1c[nH]c2ccccc12)NC(=O)[C@H](CCCCN)NC(=O)[C@H](CCCNC(=N)N)NC(=O)[C@H](CC(C)C)NC(=O)CNC(C)=O)C(=O)N[C@@H](CCCCN)C(=O)N[C@@H](CCCNC(=N)N)C(N)=O | broth microdilution | multidrug-resistant |  | 3.12 µM |
| CC[C@H](C)[C@H](N)C1=N[C@H](C(=O)N[C@@H](CC(C)C)C(=O)N[C@H](CCC(=O)O)C(=O)N[C@H](C(=O)N[C@H]2CCCCNC(=O)[C@H](CC(N)=O)NC(=O)[C@@H](CC(=O)O)NC(=O)[C@H](Cc3c[nH]cn3)NC(=O)[C@@H](Cc3ccccc3)NC(=O)[C@H](Cc3ccccc3)NC(=O)[C@@H](CCCN)NC2=O)[C@@H](C)CC)CS1 |  | USA300 MRSA | 18 h, 37 °C, with: ZnSO4 0.3 mM | 2 µg/mL |
| CC1=C[C@@]2(C)C(=C(C)[C@H]3[C@@H]4C[C@H](C)C[C@H](C)[C@H]4[C@H]4Oc5ccc(cc5)C[C@]5(O)NC(=O)[C@]6(O[C@H]65)C(=O)[C@@H]2[C@@H]43)[C@H]1C | microbial growth, broth dilution | ATCC700699 MRSA | drug-resistant strain | 3.1 µM |

Excerpt of the above:
| SMILES | assay | system | setting | MIC |
| --- | --- | --- | --- | --- |
| CC[C@H](C)[C@H](NC(=O)[C@H](CCCCN)NC(=O)[C@H](CC(N)=O)NC(=O)[C@H](Cc1c[nH]c2ccccc12)NC(=O)[C@H](Cc1ccccc1)NC(=O)[C@H](CCCCN)NC(=O)[C@H](CCCNC(=N)N)NC(=O)[C@H](CC(C)C)NC(=O)[C@H](Cc1c[nH]c2ccccc12)NC(=O)[C@H](CCCCN)NC(=O)[C@H](CCCNC(=N)N)NC(=O)[C@H](CC(C)C)NC(=O)CNC(C)=O)C(=O)N[C@@H](CCCCN)C(=O)N[C@@H](CCCNC(=N)N)C(N)=O | broth microdilution | multidrug-resistant |  | 3.12 µM |
| CC[C@H](C)[C@H](N)C1=N[C@H](C(=O)N[C@@H](CC(C)C)C(=O)N[C@H](CCC(=O)O)C(=O)N[C@H](C(=O)N[C@H]2CCCCNC(=O)[C@H](CC(N)=O)NC(=O)[C@@H](CC(=O)O)NC(=O)[C@H](Cc3c[nH]cn3)NC(=O)[C@@H](Cc3ccccc3)NC(=O)[C@H](Cc3ccccc3)NC(=O)[C@@H](CCCN)NC2=O)[C@@H](C)CC)CS1 |  | USA300 MRSA | 18 h, 37 °C, with: ZnSO4 0.3 mM | 2 µg/mL |
